Published values from different studies.
Parts stem from different laboratories: compare values within a part only.

Block 1
Target: Centromere-binding protein 1, full length, N-terminal tag (CBF1, Saccharomyces cerevisiae, UniProt P17106, residues 1-351)
UniProt P17106, sequence (whole entry, looked up): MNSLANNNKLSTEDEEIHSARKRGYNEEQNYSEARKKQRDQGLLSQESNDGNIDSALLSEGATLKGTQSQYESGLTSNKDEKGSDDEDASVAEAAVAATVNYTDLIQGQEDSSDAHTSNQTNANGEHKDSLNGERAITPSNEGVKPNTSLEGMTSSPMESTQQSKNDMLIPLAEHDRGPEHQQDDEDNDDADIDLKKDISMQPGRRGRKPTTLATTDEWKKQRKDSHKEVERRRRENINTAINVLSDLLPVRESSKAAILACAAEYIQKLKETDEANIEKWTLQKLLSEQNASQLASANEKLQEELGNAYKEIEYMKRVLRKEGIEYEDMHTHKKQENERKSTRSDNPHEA
Method: protein-binding microarray
Molecule type: double-stranded DNA, one strand shown
Sample: in vitro
Concentration: 0.8 µM
Setting: whole 60-bp probe, no competitor
Direction: higher = stronger binding
Measurement: fluorescence intensity
Constant ends, left off below: … GTCTTGATTCGCTTGACGCTGCTG
CTAAGTTCAATACGTGATCAAATATACAGCACGTTC: 1440 a.u.
GAATGAAACGTTAATTGCGTGTTTCAGTATTATTAG: 508 a.u.
CTACCTTTTCAAGATCATCACCGTCGTCATCACTTC: 548 a.u.
CTAGAAATGAAAGATCACGGGCTACGAAAAGCCTTC: 1610 a.u.
GAATGCAGTGCCTTTCACGTAATCTCAAGAGCCTAG: 505 a.u.
CCTAACTACTATAGCTGTGTGACATAGCTTCGTACA: 534 a.u.
GAACGAAAACGTTCCAACGTGCGGCCGCTGCTTTAG: 536 a.u.
GAAATTGGATACCCTGATGTAATGCAAAACTTTTAG: 569 a.u.
CTATATACTTTCTAACTGATGATGAATATGAAATTC: 546 a.u.

Block 2
Target: Sal-like protein 4, full length isoform A (SALL4, Homo sapiens, UniProt Q9UJQ4, residues 1-1053)
UniProt Q9UJQ4, sequence (whole entry, looked up): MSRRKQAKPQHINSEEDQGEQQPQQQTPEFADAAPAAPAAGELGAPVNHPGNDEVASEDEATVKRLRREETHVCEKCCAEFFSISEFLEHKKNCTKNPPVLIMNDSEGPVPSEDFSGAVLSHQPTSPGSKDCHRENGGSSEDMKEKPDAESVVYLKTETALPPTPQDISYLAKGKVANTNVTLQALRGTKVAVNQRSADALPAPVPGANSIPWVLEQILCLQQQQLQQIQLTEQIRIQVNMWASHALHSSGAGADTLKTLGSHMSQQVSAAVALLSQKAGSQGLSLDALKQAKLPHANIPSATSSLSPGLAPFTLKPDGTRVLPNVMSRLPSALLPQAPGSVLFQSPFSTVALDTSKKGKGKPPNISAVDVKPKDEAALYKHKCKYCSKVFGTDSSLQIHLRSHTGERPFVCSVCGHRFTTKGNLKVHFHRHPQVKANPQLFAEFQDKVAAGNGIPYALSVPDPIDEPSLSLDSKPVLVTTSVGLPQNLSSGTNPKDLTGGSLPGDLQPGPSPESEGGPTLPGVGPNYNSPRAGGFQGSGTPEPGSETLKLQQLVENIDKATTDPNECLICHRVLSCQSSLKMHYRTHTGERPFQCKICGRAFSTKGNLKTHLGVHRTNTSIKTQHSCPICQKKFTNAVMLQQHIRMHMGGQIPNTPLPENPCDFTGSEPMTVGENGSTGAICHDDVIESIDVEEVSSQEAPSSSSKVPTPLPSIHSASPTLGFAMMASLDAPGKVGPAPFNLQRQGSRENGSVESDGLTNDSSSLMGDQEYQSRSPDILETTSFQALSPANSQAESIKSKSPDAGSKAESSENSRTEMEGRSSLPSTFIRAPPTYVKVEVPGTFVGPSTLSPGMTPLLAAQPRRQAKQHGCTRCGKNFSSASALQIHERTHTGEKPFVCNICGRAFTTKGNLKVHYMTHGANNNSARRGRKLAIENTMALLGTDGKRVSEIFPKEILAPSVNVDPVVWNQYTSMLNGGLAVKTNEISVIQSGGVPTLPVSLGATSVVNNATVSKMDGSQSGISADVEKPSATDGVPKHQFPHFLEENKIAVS
Method: universal PBM
Molecule type: double-stranded DNA, one strand shown
Sample: in vitro
Concentration: 600 nM
Setting: 8-mer, flanks averaged, mean of replicates
Direction: higher = stronger binding
Measurement: E-score
CATTTTGA: 0.182
CATACCCC: -0.0437
CCGATCCC: -0.35
CGAAACAA: 0.121
CAGTTTGC: -0.0409
ACTCCGGG: -0.259
CTAGCTTC: -0.131
AGAGGGAG: -0.112

Block 3
Target: Histone acetyltransferase KAT6A, winged helix 1, GST fusion (KAT6A, Homo sapiens, UniProt Q92794, residues 1-85)
Method: protein binding microarray
Molecule type: double-stranded DNA, one strand shown
Sample: in vitro
Concentration: not given
Setting: 8-mer, flanks averaged, mean of 2 arrays, mostly near background
Baseline: not given
Direction: higher = stronger binding
Measurement: E-score
Construct (chain): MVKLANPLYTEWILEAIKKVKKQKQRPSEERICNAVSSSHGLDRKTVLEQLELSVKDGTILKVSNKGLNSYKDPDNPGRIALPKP
ACCCTGAG: -0.0124
CGTTTTCC: -0.00879
AAGCATAT: -0.17
CCTGCCCA: -0.234
AAGCGATA: 0.0852
ACTATACT: 0.02

Other studies, line by line
PhoQ, residues 284 288 289 292 302 303 GASLAW
fold induction (PhoP, residues 12 14 15 18 19 LHSVQ (Escherichia coli, UniProt P23836); Sort-seq, measured: YFP reporter; E. coli; PhoQ-PhoP variant library, added: 10 µM Mg2+; baseline: high Mg2+ state, higher = stronger signaling): 4.59

A few entries again (block 3):
CCTGCCCA: -0.234
ACCCTGAG: -0.0124
